Published values gathered from unrelated publications.
Lines come from different studies, so protocols differ. ± gives the spread as reported.

Cc1cc(C)c2c(c1)[C@@H](N(Cc1cc(C(F)(F)F)cc(C(F)(F)F)c1)c1nnn(C)n1)CCCN2C[C@H]1CC[C@H](C(=O)O)CC1 — Cmax (healthy humans, plasma; oral, 130 mg once daily, day 22, geometric mean, added: gemfibrozil 600 mg twice daily): 1290 ng/mL
CC(C)(Sc1ccncc1-c1ccc(C#N)c2ccccc12)C(=O)O — Cmax (human male, plasma; oral, 10 mg once daily, day 7 or 21, arithmetic mean): 15.6 ng/mL
CN1CC[C@H](c2c(O)cc(O)c3c(=O)cc(-c4ccccc4Cl)oc23)[C@H](O)C1 — Cmax (HPLC-MS/MS; human, plasma; intravenous, 35 then 35 mg/m^2, 30 min bolus then 4 h infusion, cycle 1, mean, added: irinotecan 180 mg/m^2): 2460 nM
COc1ccnc(C[S+]([O-])c2nc3ccc(OC(F)F)cc3[nH]2)c1OC (stereo not drawn) — Cmax (human, CYP2C19 normal metabolizers, plasma; oral, 40 mg/day, day 1): 4570 ± 2870 ng/mL
COC(=O)C(c1ccccc1Cl)N1CCC(S)C(=CC(=O)O)C1 (stereo not drawn) — Cmax (human patients, CYP3A4 wt/wt, plasma; oral, 75 mg clopidogrel daily, day 7, median): 5.15 ng/mL
Cc1cnc(N2CC3(CCOCC3)C2)c(C(=O)Nc2ccc(C(=O)N3CCc4cc(C(=O)Nc5c(C)cccc5F)sc4-c4ccccc43)cc2)c1 — Cmax (human, plasma; inhaled nebulised, 5 mg twice daily repeated, geometric mean): 1.49 ng/mL
Cc1ccc(NC(=O)c2ccc(CN3CCN(C)CC3)cc2)cc1Nc1nccc(-c2cncc(-c3oncc3C)c2)n1 — Cmax (older healthy human adults, plasma; oral, 25.0 mg single dose, fed, mean): 945 ng/mL
Cc1cc(-c2nnc(N)nc2-c2ccc(F)cc2)cc(Cl)n1 — Cmax (human patients, plasma; oral, 100 mg nanosuspension, single dose, arithmetic mean): 654 ng/mL
Nc1ccc(-c2nc([C@H]3CCc4cc(-c5cc(Cl)ccc5-n5cnnn5)cc(=O)n43)c(F)[nH]2)c(F)n1 — Cmax (human, plasma; oral, 80 mg once daily, fed, day 14): 1040 ng/mL
COc1ccc(-n2nc(C(N)=O)c3c2C(=O)N(c2ccc(N4CCCCC4=O)cc2)CC3)cc1 — Cmax (human male and female, plasma; oral, 10 mg, geometric least squares mean, added: cyclosporine 100 mg daily for 3 days): 257 ng/mL
CCCCCCCCCCCCCCC[C@H](O)[C@@H](N)CO — Cmax (human, phase I, plasma; intravenous, 600 mg/m^2, day 1, monotherapy): 23900 nM
C=C(C)[C@@H]1CC[C@]2(NCCN3CCS(=O)(=O)CC3)CC[C@]3(C)[C@H](CC[C@@H]4[C@@]5(C)CC=C(C6=CC[C@@](CF)(C(=O)O)CC6)C(C)(C)[C@@H]5CC[C@]43C)[C@@H]12 — Cmax (healthy human volunteers, plasma; oral, 200 mg, tablet, moderate-fat state, mean): 1510 ng/mL
CS(=O)(=O)Nc1ccc(C(=O)O[C@@H](Cc2c(Cl)c[n+]([O-])cc2Cl)c2ccc(OC(F)F)c(OCC3CC3)c2)cc1OCC1CC1 — Cmax (human, plasma; inhaled, 1600 µg once daily, day 1, single-dose dry powder inhaler): 0.71 ng/mL
O=C(CCCCCCC(=O)Nc1ccccc1)NO — Cmax (human, serum; oral, 100 mg three times daily, 14 days, median, added: idarubicin): 445 nM
N#C[C@@H]1C[C@@H]2C[C@@H]2N1C(=O)[C@@H](N)C12CC3CC(CC(O)(C3)C1)C2 — Cmax (healthy human subjects, plasma; oral, 10 mg, day 10, geometric mean, added: diltiazem extended-release 360 mg): 87 ng/mL
CCN1CCN(Cc2ccc(Nc3ncc(F)c(-c4cc(F)c5nc(C)n(C(C)C)c5c4)n3)nc2)CC1 — Cmax (human patients, plasma; oral, 150 mg single, geometric mean): 123 ng/mL
Cc1ccc(NC(=O)c2ccc(CN3CCNCC3)cc2)cc1Nc1nccc(-c2cccnc2)n1 — Cmax (human patients, plasma; oral, 400 mg of imatinib, first dose, day 1 of cycle 1): 294 ng/mL
C=C(C)[C@@H]1CC[C@]2(NCCN3CCS(=O)(=O)CC3)CC[C@]3(C)[C@H](CC[C@@H]4[C@@]5(C)CC=C(C6=CC[C@@](CF)(C(=O)O)CC6)C(C)(C)[C@@H]5CC[C@]43C)[C@@H]12 — Cmax (human; oral, 50 mg once daily, day 14, multiple ascending dose): 414 ng/mL
